Measured values of several laboratories.
Every numbered part comes from another study and shows a few of its results, in no order. Substitutions count along the parent as printed.
Sequence of UniProt Q9ZPY6 (whole entry, looked up): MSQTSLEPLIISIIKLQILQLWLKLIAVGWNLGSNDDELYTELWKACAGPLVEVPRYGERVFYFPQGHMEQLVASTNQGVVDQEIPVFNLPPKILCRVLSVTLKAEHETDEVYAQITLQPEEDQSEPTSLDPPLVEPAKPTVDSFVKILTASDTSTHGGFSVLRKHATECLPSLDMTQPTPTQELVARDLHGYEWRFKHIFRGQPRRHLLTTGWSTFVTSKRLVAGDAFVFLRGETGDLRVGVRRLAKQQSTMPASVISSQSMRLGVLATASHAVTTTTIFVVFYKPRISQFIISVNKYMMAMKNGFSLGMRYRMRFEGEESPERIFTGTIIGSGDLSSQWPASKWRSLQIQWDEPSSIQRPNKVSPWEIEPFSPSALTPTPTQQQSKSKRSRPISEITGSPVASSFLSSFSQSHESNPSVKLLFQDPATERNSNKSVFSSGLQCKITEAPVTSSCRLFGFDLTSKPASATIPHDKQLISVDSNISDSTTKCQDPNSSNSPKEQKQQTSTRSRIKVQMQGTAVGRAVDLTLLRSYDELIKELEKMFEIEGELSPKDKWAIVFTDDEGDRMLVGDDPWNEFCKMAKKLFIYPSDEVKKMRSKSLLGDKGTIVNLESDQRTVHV
Sequence of UniProt Q9C5W9 (whole entry, looked up): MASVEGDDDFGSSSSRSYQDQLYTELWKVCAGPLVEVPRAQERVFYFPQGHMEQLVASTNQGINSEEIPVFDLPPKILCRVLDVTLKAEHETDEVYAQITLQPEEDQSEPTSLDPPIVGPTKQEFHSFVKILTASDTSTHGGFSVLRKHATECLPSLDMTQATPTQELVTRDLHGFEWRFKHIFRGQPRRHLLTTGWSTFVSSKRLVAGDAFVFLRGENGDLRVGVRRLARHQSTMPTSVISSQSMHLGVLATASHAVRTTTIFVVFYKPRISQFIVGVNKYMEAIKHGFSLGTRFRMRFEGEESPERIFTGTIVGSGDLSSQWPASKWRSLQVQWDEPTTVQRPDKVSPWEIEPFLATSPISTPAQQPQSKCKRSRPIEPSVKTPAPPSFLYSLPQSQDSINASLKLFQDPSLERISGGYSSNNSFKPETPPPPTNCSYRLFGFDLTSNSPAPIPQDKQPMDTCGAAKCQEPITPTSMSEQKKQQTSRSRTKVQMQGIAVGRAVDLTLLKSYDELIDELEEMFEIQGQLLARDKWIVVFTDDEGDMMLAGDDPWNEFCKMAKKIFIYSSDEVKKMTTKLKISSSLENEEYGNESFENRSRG
Sequence of UniProt Q9C7I9 (whole entry, looked up): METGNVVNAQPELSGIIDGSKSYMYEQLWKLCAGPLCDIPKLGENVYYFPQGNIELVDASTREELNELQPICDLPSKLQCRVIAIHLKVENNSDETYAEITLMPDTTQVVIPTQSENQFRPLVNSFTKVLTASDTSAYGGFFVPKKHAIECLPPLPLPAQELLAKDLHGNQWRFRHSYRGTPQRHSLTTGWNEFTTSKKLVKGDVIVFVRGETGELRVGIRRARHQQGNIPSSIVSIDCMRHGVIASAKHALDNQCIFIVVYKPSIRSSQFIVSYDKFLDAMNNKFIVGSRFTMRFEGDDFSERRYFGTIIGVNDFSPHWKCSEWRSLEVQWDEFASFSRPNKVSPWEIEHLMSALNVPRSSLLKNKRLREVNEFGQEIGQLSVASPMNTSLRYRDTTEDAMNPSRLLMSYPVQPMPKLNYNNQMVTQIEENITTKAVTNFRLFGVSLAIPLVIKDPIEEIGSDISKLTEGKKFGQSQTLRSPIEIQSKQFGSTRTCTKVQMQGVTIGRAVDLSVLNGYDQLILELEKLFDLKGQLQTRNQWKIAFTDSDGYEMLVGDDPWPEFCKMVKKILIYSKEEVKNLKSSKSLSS
Sequence of UniProt Q93YR9 (whole entry, looked up): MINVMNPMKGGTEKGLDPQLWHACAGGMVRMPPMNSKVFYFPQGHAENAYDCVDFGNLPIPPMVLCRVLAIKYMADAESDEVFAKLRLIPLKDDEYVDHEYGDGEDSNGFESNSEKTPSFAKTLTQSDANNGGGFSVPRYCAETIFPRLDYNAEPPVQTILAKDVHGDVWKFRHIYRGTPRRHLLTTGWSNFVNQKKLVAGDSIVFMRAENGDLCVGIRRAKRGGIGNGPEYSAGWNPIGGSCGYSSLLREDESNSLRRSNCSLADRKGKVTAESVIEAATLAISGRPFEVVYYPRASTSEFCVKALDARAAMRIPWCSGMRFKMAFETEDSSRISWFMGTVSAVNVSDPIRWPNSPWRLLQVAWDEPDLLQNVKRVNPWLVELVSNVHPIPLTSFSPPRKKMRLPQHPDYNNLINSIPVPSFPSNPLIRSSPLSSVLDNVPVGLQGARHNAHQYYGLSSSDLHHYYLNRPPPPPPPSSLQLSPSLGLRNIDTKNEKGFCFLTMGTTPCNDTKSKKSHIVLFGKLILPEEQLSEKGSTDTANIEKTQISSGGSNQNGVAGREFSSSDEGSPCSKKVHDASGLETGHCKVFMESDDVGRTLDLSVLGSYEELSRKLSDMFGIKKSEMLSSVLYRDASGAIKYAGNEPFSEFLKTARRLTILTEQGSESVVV

Study 1 — technique: DHFR PCA, deep sequencing; sample: yeast; together with: (+)-ABA 1.4 µM; baseline: wild-type fitted maximum; direction: higher = stronger binding
Target: ABI1, truncated, D143A, DHFR fusion (Arabidopsis thaliana)
Setting: methotrexate growth selection, single substitutions
Parent: PYL1, truncated, DHFR fusion (Arabidopsis thaliana); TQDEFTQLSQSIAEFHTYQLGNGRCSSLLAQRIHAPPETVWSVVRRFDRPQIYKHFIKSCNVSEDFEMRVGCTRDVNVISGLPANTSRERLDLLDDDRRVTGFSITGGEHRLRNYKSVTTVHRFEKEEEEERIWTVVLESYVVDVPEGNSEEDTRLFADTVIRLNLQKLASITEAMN
`R74S` — result for “relative binding score”: -5.36%.
For `G102A`, “relative binding score” read 24.2%.
`L166S`: “relative binding score” 0.19%.
`T101Y` — result for “relative binding score”: 19.6%.
`D144Y`: “relative binding score” 7.78%.
For `D97W`, “relative binding score” read 3.07%.
`I79V`: “relative binding score” 67.2%.
Under “relative binding score”, `E151G` is recorded as 19.1%.
For `S140Q`, “relative binding score” read 17.6%.
Under “relative binding score”, `R88S` is recorded as 43.1%.
Under “relative binding score”, `L82W` is recorded as 28%.
For `L8I`, “relative binding score” read 9.68%.
`F103Y`: “relative binding score” 51.5%.
Under “relative binding score”, `D144M` is recorded as -15.7%.
For `F124C`, “relative binding score” read 52.2%.
For `T120D`, “relative binding score” read -10.9%.
For `T39K`, “relative binding score” read 53.3%.
For `G23F`, “relative binding score” read 6.06%.

Study 2 — target: CCND3, cyclin fold, Cln2 fusion (human); technique: yeast growth competition, sequencing; sample: yeast; setting: weak parent motif; baseline: not given; direction: higher = stronger binding
Parent: AKAP12 docking peptide (human); GSPLKKLFTSTGL; partner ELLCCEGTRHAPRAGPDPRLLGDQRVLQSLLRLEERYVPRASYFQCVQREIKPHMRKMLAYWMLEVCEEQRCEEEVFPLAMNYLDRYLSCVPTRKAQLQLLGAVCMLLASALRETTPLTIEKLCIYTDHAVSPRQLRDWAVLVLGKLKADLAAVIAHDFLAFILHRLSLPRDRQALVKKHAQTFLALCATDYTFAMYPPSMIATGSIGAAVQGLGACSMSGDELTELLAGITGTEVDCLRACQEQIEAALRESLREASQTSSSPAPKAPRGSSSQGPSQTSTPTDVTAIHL
For `S10A`, “normalised enrichment score” read 0.167.
`K5R`: “normalised enrichment score” 0.0014.
Under “normalised enrichment score”, `L7A` is recorded as 0.0609.
For `K5A L7A`, “normalised enrichment score” read -0.0567.
Under “normalised enrichment score”, `K5A` is recorded as 0.0117.
`T11A`: “normalised enrichment score” 0.00638.
Under “normalised enrichment score”, `K5R F8L` is recorded as -0.366.
`K6A`: “normalised enrichment score” 0.189.
`S2A` — result for “normalised enrichment score”: 0.143.
For `G1A`, “normalised enrichment score” read 0.0745.

Study 3 — technique: protein-binding microarray; molecule type: double-stranded DNA, one strand shown; sample: in vitro; tested at: 2200 nM top; setting: 60-bp whole probe; together with: salmon DNA 0.4 mg/ml; baseline: random background probes; direction: higher = stronger binding; all sequences stand within: GCCTAGCAC … GTCTTGATTCGCTTGACGCTGCTG
Target: Interferon regulatory factor 7, full length, phosphomimetic (IRF7, Homo sapiens, UniProt Q92985, residues 1-503, S471D/S472D/S475D/S476D/S477D/S483D/S484D/S487D)
Sequence of UniProt Q92985 (whole entry, unmodified, looked up): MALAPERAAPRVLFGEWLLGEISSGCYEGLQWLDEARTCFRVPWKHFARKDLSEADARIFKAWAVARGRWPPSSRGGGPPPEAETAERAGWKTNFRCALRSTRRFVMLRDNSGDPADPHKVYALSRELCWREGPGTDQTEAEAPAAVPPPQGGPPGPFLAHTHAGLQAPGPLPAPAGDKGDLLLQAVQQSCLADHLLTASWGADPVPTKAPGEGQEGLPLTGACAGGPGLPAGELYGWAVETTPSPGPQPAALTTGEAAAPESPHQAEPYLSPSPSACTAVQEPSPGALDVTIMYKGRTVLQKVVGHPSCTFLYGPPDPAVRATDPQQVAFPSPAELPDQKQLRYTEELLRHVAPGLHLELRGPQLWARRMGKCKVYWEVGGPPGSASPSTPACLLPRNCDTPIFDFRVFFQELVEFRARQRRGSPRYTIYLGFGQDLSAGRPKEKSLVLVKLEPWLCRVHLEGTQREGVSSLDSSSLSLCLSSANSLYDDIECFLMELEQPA
`GACGACATCAGTATCGAGACGTGCTAG`: “fitted relative affinity” 0.0945 z-score.
Under “fitted relative affinity”, `TTAGGTATCGACGATCGGTTAGTGCTA` is recorded as -0.0356 z-score.
For `TTAGGTATCGATACTGGGTTAGTGCTA`, “fitted relative affinity” read 0.203 z-score.
`TCAGGTTTCACTTTCCAACTGTGCTAG` — result for “fitted relative affinity”: 8.18 z-score.
`GATGATATCAGTTTCGAGACGTGCTAG`: “fitted relative affinity” 3.89 z-score.
For `GACGGACTGGTGTATCGGGACGTGCTA`, “fitted relative affinity” read -0.895 z-score.
For `TAGCATGTAATTTGTTTGCAGTGCTAG`, “fitted relative affinity” read 0.216 z-score.
For `TTAGAACAGAGTCTCGATTAGTGCTAG`, “fitted relative affinity” read -0.523 z-score.
`TTAGGCTTCCTTTTCCTTTAGTGCTAG`: “fitted relative affinity” 1.74 z-score.
`TTAGGTTTCGGTCTCGGTTCGTGCTAG` — result for “fitted relative affinity”: 7.52 z-score.
For `ATATCTAAAAAGTCTCTGGGAGTGCTA`, “fitted relative affinity” read -0.663 z-score.
`GACGGTATCGATTTCGGGACGTGCTAG` — result for “fitted relative affinity”: 1.94 z-score.
For `GACGGACTGGGGAGTGGGGACGTGCTA`, “fitted relative affinity” read -0.786 z-score.
Under “fitted relative affinity”, `TTAGAACAGAGTTTCGATTAGTGCTAG` is recorded as 2.95 z-score.
Under “fitted relative affinity”, `TTAGAACTGAGTTTCGTTTAGTGCTAG` is recorded as 4.68 z-score.
For `TTAGAATTGAGTTTCGATTAGTGCTAG`, “fitted relative affinity” read 3.56 z-score.
Under “fitted relative affinity”, `GACGGTTTTGGGTTTCGGGACGTGCTA` is recorded as 3.39 z-score.
For `AACTAAAGAGACCACAAAAAGTGCTAG`, “fitted relative affinity” read -1.36 z-score.
For `TTAGAACTCAGTTTCGATTAGTGCTAG`, “fitted relative affinity” read 5.38 z-score.

Study 4 — target: BATF3, bZIP domain (human); technique: DHFR protein complementation; sample: yeast; baseline: wild-type JUN-FOS pair; direction: higher = stronger binding
Setting: single substitutions, most at no-binding floor
Parent: JUN, bZIP domain (human); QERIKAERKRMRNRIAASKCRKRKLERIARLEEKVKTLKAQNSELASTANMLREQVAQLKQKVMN; partner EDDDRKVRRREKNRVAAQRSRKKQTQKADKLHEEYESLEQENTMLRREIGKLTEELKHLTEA
The binding fitness of `A57E` is reported as 0.208 natural log.
With `A57L` the binding fitness was 0.107 natural log.
`K34T` gave a binding fitness of 0.248 natural log.
With `E32N` the binding fitness was 0.0561 natural log.
For `A40Y`, the binding fitness was 0.105 natural log.
With `T48Q` the binding fitness was 0.18 natural log.
With `L45E` the binding fitness was -0.799 natural log.
With `S43Q` the binding fitness was 0.286 natural log.
The binding fitness of `Q55H` is reported as 0.228 natural log.
The binding fitness of `S47H` is reported as 0.178 natural log.
The binding fitness of `L31C` is reported as 0.131 natural log.
With `K39D` the binding fitness was 0.0138 natural log.
For `A49H`, the binding fitness was 0.0814 natural log.
`A40S` gave a binding fitness of 0.195 natural log.
`L52N` gave a binding fitness of -1.31 natural log.
With `L45A` the binding fitness was -0.0514 natural log.
With `A57S` the binding fitness was 0.209 natural log.
`V35D` gave a binding fitness of -0.933 natural log.
With `S43Y` the binding fitness was 0.156 natural log.
The binding fitness of `A49V` is reported as 0.198 natural log.
The binding fitness of `A29D` is reported as 0.296 natural log.
With `V56A` the binding fitness was 0.0904 natural log.
`A40Q` has a binding fitness of 0.25 natural log.
The binding fitness of `L59T` is reported as 0.19 natural log.

Study 5 — Molecule: B1 (ARF9 519-638); technique: two-hybrid; setting: weak activation fusion; direction: higher = firmer interaction
B1: ARF9 519-638 (Arabidopsis thaliana, UniProt Q9XED8); chain SSSTRSRTKVQMQGVPVGRAVDLNALKGYNELIDDIEKLFDIKGELRSRNQWEIVFTDDEGDMMLVGDDPWPEFCNMVKRIFIWSKEEVKKMTPGNQLRMLLREVETTLTTTSKTDNHSN
It gave 1 for positive tests (ARF18 482-602 (Arabidopsis thaliana, UniProt Q9C5W9); baseline: out of 4 tests).
The positive tests was 0 (ARF16 570-670 (Arabidopsis thaliana, UniProt Q93YR9); baseline: out of 4 tests).
For ARF11 500-622 (Arabidopsis thaliana, UniProt Q9ZPY6); baseline: out of 2 tests: positive tests read 0.
For ARF22 498-598 (Arabidopsis thaliana, UniProt Q9C8N7); baseline: out of 4 tests: positive tests read 0.
ARF20 484-590 (Arabidopsis thaliana, UniProt Q9C7I9); baseline: out of 2 tests — positive tests: 2.

Mixed results
With `PhoQ, residues 284 288 289 292 302 303 TVTVVA` the fold induction was 7.51 (PhoP, residues 12 14 15 18 19 IQSYL (Escherichia coli, UniProt P23836); Sort-seq, refers to: YFP reporter; E. coli; PhoQ-PhoP variant library, together with: 10 µM Mg2+; baseline: high Mg2+ state, higher = stronger signaling).

For quick reference, copied from above (study 3):
For `TTAGAATTGAGTTTCGATTAGTGCTAG`, “fitted relative affinity” read 3.56 z-score.
Under “fitted relative affinity”, `TTAGGTATCGACGATCGGTTAGTGCTA` is recorded as -0.0356 z-score.
`GATGATATCAGTTTCGAGACGTGCTAG`: “fitted relative affinity” 3.89 z-score.
Under “fitted relative affinity”, `TTAGAACTGAGTTTCGTTTAGTGCTAG` is recorded as 4.68 z-score.
For `TAGCATGTAATTTGTTTGCAGTGCTAG`, “fitted relative affinity” read 0.216 z-score.
`TTAGGCTTCCTTTTCCTTTAGTGCTAG`: “fitted relative affinity” 1.74 z-score.
For `ATATCTAAAAAGTCTCTGGGAGTGCTA`, “fitted relative affinity” read -0.663 z-score.
`GACGACATCAGTATCGAGACGTGCTAG`: “fitted relative affinity” 0.0945 z-score.
